Assay results pooled from the literature.
T1: DNA aptamer; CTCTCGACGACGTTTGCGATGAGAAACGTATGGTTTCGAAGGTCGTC
T2: DNA aptamer; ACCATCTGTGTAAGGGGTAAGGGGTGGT
T3: DNA aptamer; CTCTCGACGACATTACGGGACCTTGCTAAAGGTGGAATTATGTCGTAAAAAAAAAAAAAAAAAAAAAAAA
T4: DNA aptamer; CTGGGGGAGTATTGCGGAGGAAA
T5: DNA aptamer; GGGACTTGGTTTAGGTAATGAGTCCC
T6: DNA aptamer, abasic dSpacer opposite cytosine; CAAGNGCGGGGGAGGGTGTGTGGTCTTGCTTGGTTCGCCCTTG
T7: DNA aptamer; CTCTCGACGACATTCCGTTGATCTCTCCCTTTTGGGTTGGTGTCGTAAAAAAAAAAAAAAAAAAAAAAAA
T8: DNA aptamer C19T; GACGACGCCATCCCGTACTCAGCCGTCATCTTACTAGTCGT

Nc1ncnc2c1ncn2[C@@H]1O[C@H](COP(=O)(O)OP(=O)(O)OP(=O)(O)O)[C@@H](O)[C@H]1O  binding (T1, DNA aptamer; probe displacement, competitor, fluorescence): binds
COc1cccc2c1C(=O)c1c(O)c3c(c(O)c1C2=O)C[C@@](O)(C(=O)CO)C[C@@H]3O[C@H]1C[C@H](N)[C@H](O)[C@H](C)O1  Kd (T2, DNA aptamer; square-wave voltammetry; whole bovine blood; 37 °C, apparent, Hill fit): 4.5 µM
Nc1ncnc2c1ncn2[C@@H]1O[C@H](CO)[C@@H](O)[C@H]1O  binding (T1, DNA aptamer; competition, fluorescence strand displacement; together with: adenosine 100 µM): binds
O=c1[nH]c(=O)c2[nH]c(=O)[nH]c2[nH]1  binding (T3, DNA aptamer; probe displacement, competitor, SPR; 25 °C): binds
Nc1ncnc2c1ncn2[C@@H]1O[C@H](COP(=O)(O)OP(=O)(O)OP(=O)(O)O)[C@@H](O)[C@H]1O  Kd (T4, DNA aptamer; amperometry; apparent, equilibrium binding curve, sensor): 77 µM
NC[C@H]1O[C@H](O[C@H]2[C@H](O)[C@@H](O[C@H]3O[C@H](CO)[C@@H](O)[C@H](N)[C@H]3O)[C@H](N)C[C@@H]2N)[C@H](N)C[C@@H]1O  binding (T5, DNA aptamer; amperometry; qualitative, together with: tobramycin 0.1 mM): binds
Cc1nc2nc(N)ccc2c(C)c1C  binding (T6, DNA aptamer, abasic dSpacer opposite cytosine; fluorescence quenching): binds
Nc1ncnc2c1ncn2[C@@H]1O[C@H](COP(=O)(O)OP(=O)(O)OP(=O)(O)O)[C@@H](O)[C@H]1O  binding (T5, DNA aptamer; amperometry; little response to ATP): no binding
CN(C)[C@@H]1C(=O)C(C(N)=O)=C(O)[C@@]2(O)C(=O)C3=C(O)c4c(O)cccc4[C@@](C)(O)[C@H]3[C@H](O)[C@@H]12  binding (T7, DNA aptamer; probe displacement, competitor, SPR; 25 °C): binds
CC1(C)S[C@@H]2[C@H](NC(=O)[C@H](N)c3ccccc3)C(=O)N2[C@H]1C(=O)O  Kd (T8, DNA aptamer C19T; competition, fluorescence displacement; apparent, together with: ThT 10 µM): 5.3 µM

Repeated from above:
NC[C@H]1O[C@H](O[C@H]2[C@H](O)[C@@H](O[C@H]3O[C@H](CO)[C@@H](O)[C@H](N)[C@H]3O)[C@H](N)C[C@@H]2N)[C@H](N)C[C@@H]1O  binding (T5, DNA aptamer; amperometry; qualitative, together with: tobramycin 0.1 mM): binds
